Experimental data gathered from unrelated publications.
A part holds a random share of what one study measured.
Chain of UniProt P29597 (whole entry, looked up): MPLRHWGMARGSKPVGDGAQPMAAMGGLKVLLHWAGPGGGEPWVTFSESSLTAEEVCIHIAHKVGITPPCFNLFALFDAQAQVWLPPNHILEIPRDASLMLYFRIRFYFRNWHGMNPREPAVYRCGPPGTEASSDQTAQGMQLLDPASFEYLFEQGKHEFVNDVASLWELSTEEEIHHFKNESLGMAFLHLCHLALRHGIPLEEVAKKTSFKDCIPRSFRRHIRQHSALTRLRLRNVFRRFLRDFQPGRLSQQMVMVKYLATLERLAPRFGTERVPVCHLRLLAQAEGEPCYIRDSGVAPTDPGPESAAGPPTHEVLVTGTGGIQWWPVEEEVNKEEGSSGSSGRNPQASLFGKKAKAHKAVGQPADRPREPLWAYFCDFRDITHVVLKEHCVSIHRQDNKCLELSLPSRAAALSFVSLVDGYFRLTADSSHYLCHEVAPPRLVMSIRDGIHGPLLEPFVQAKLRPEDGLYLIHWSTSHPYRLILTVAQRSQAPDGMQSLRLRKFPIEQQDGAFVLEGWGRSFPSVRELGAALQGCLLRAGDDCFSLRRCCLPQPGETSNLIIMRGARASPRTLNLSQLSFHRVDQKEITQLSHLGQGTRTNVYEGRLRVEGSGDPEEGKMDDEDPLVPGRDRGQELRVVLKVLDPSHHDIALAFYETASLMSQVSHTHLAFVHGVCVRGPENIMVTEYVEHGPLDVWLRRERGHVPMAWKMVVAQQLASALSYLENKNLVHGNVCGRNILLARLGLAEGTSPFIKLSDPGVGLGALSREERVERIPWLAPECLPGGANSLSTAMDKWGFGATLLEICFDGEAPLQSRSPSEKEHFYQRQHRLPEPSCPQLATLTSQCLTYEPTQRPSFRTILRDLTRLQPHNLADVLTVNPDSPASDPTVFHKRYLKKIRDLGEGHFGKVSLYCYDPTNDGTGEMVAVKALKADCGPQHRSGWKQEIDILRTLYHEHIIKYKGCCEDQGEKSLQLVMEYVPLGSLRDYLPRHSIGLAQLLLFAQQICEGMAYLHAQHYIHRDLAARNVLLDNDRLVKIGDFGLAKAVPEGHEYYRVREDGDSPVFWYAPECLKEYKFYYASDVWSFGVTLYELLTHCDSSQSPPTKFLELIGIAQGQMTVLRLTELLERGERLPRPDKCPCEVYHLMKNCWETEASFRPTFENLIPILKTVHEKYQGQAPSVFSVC
Chain of UniProt Q13554 (whole entry, looked up): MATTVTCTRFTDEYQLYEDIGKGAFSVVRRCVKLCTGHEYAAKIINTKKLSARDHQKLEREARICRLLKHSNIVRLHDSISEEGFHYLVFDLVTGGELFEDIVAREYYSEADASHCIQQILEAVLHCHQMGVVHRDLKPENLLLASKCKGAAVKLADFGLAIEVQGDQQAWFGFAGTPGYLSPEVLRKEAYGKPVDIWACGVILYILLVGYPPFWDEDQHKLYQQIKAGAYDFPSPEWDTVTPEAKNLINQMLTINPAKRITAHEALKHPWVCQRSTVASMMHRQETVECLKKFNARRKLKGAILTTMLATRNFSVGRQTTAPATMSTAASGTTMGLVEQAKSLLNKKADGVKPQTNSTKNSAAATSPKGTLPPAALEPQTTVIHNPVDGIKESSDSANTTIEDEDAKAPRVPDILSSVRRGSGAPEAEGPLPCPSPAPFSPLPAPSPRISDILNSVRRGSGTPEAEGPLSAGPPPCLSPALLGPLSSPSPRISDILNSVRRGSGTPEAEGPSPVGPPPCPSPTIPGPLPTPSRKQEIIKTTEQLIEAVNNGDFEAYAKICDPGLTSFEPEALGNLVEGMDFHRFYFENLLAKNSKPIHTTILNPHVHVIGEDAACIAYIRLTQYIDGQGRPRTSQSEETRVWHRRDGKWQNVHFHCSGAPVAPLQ
Chain of UniProt Q00526 (whole entry, looked up): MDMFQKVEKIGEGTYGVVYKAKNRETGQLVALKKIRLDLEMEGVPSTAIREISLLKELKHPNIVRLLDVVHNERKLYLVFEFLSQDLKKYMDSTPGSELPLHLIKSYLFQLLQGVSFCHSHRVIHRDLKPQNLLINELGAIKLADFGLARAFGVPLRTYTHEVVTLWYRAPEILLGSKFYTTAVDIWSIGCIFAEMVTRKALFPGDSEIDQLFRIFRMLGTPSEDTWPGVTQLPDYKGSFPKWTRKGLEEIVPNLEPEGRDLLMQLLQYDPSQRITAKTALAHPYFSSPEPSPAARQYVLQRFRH
Chain of UniProt Q8NG66 (whole entry, looked up): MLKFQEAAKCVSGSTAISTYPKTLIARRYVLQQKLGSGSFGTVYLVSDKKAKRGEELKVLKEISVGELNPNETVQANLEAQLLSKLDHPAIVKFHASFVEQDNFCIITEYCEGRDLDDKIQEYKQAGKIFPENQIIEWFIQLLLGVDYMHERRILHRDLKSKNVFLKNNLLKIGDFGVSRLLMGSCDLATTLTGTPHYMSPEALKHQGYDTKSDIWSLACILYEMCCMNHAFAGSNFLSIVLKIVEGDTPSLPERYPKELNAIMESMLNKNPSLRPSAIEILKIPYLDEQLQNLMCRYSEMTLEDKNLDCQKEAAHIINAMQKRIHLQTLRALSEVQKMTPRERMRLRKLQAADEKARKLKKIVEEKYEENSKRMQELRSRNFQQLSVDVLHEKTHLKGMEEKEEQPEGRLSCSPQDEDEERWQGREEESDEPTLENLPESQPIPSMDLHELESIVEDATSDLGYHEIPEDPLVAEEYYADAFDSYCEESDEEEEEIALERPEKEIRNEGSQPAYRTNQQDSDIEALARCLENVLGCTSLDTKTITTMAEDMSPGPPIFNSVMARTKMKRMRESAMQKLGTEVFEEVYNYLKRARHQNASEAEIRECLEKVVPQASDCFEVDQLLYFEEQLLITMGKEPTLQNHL
Chain of UniProt P53667 (whole entry, looked up): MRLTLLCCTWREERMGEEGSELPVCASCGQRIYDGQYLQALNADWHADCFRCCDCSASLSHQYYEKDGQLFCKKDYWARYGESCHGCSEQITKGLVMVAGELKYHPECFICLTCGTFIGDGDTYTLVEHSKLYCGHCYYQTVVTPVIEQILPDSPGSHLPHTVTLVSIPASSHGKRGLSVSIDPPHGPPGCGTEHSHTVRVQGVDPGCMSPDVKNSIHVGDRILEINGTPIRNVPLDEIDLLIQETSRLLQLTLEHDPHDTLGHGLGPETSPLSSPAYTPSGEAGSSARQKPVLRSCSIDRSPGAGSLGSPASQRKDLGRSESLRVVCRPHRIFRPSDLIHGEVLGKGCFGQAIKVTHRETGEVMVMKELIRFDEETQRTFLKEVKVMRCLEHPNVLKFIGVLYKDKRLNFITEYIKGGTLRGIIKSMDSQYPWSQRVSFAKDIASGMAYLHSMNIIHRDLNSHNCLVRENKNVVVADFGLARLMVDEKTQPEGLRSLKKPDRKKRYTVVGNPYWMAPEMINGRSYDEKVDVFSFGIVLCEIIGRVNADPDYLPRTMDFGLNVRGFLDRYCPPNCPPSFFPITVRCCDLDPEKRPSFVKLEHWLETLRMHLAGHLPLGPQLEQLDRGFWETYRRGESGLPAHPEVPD
Chain of UniProt Q6PHR2 (whole entry, looked up): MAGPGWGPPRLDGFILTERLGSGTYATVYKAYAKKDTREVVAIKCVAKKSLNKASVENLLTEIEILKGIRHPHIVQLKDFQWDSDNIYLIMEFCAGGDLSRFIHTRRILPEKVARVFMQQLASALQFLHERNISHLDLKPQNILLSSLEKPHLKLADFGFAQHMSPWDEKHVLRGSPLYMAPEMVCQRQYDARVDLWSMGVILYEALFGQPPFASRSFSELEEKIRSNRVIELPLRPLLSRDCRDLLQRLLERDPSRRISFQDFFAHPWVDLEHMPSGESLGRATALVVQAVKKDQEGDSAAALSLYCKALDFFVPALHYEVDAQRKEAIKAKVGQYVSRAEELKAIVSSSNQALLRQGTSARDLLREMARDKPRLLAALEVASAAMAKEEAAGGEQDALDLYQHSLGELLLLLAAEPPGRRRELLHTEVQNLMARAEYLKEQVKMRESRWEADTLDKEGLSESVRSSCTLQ
Chain of UniProt P29322 (whole entry, looked up): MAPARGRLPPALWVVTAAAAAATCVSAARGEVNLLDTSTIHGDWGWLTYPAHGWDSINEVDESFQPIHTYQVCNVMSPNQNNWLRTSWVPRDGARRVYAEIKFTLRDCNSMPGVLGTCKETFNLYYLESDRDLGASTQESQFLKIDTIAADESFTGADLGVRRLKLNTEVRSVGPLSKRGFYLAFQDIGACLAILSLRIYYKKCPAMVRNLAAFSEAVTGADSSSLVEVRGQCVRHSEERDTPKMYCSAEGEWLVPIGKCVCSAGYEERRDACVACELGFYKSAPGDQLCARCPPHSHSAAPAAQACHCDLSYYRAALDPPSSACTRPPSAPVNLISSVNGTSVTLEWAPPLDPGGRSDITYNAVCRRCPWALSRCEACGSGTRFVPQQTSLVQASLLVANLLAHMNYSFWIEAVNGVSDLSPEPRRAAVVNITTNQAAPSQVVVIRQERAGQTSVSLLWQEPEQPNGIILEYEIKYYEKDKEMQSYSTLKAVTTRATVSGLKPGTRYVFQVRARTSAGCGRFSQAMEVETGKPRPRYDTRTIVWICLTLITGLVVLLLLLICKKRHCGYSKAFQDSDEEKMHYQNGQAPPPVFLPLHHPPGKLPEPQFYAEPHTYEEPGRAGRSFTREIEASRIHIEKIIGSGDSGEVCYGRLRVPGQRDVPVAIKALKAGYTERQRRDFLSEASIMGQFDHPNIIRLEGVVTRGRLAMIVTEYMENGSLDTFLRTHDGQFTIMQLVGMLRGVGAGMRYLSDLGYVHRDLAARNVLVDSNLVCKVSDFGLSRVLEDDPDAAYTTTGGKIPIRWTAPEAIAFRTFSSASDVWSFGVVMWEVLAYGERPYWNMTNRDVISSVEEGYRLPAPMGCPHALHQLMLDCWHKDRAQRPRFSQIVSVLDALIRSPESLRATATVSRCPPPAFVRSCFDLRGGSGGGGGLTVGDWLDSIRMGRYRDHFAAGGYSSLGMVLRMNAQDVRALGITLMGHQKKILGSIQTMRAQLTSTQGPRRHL

Sample 1
SMILES: CCN1/C(=C/C(C)=O)Sc2ccc(OC)cc21
Observed: enzyme activity
Mode: inhibitor
Concentration: 0.5 µM
Relative to: control
The remaining activity was 95.6% (Serine/threonine-protein kinase TAO3 (TAOK3, Homo sapiens, UniProt Q9H2K8)).
The remaining activity was 103% (Serine/threonine-protein kinase NLK (NLK, Homo sapiens, UniProt Q9UBE8)).
The remaining activity was 96.6% (cAMP-dependent protein kinase catalytic subunit PRKX (PRKX, Homo sapiens, UniProt P51817)).
The remaining activity was 91.5% (Cyclin-dependent kinase 3, with cyclin E (CDK3, Homo sapiens, UniProt Q00526)).
It gave 94.4% for remaining activity (Proto-oncogene tyrosine-protein kinase Src (SRC, Homo sapiens, UniProt P12931)).
It gave 87.9% for remaining activity (Tyrosine-protein kinase Fer (FER, Homo sapiens, UniProt P16591)).
For Serine/threonine-protein kinase MRCK alpha (CDC42BPA, Homo sapiens, UniProt Q5VT25): remaining activity read 85%.
The remaining activity was 104% (Serine/threonine-protein kinase Nek11 (NEK11, Homo sapiens, UniProt Q8NG66)).
The remaining activity was 95% (Homeodomain-interacting protein kinase 1 (HIPK1, Homo sapiens, UniProt Q86Z02)).
Tyrosine-protein kinase Fyn (FYN, Homo sapiens, UniProt P06241) — remaining activity: 99.1%.
Tyrosine-protein kinase ITK/TSK (ITK, Homo sapiens, UniProt Q08881) — remaining activity: 102%.
Tyrosine-protein kinase Fgr (FGR, Homo sapiens, UniProt P09769) — remaining activity: 91.8%.
Vascular endothelial growth factor receptor 3 (FLT4, Homo sapiens, UniProt P35916) — remaining activity: 99.7%.
ALK tyrosine kinase receptor (ALK, Homo sapiens, UniProt Q9UM73) — remaining activity: 105%.
It gave 90.1% for remaining activity (RAC-alpha serine/threonine-protein kinase (AKT1, Homo sapiens, UniProt P31749)).
It gave 100% for remaining activity (MAP/microtubule affinity-regulating kinase 3 (MARK3, Homo sapiens, UniProt P27448)).
It gave 108% for remaining activity (LIM domain kinase 1 (LIMK1, Homo sapiens, UniProt P53667)).
PAS domain-containing serine/threonine-protein kinase (PASK, Homo sapiens, UniProt Q96RG2) — remaining activity: 72.8%.
The remaining activity was 100% (Serine/threonine-protein kinase N1 (PKN1, Homo sapiens, UniProt Q16512)).
For Insulin receptor (INSR, Homo sapiens, UniProt P06213): remaining activity read 101%.
For Serine/threonine-protein kinase 25 (STK25, Homo sapiens, UniProt O00506): remaining activity read 98%.
It gave 89.2% for remaining activity (Megakaryocyte-associated tyrosine-protein kinase (MATK, Homo sapiens, UniProt P42679)).

Sample 2
Compound: CCS(=O)(=O)c1cc2cc(C[C@](O)(CC(C)(C)c3ccc(F)cc3C(N)=O)C(F)(F)F)[nH]c2cn1
Observed: cell-free assay
Method: competition with immobilised ligand
Concentration: 1 µM
RAC-gamma serine/threonine-protein kinase (AKT3, Homo sapiens, UniProt Q9Y243) — remaining binding: 100%.
The remaining binding was 82% (Ribosomal protein S6 kinase beta-1 (RPS6KB1, Homo sapiens, UniProt P23443)).
The remaining binding was 100% (Ribosomal protein S6 kinase alpha-3, N-terminal kinase domain (RPS6KA3, Homo sapiens, UniProt P51812)).
The remaining binding was 100% (Serine/threonine-protein kinase N2 (PKN2, Homo sapiens, UniProt Q16513)).
The remaining binding was 100% (Tyrosine-protein kinase ABL1, non-phosphorylated (ABL1, Homo sapiens, UniProt P00519, T315I)).
For Mitogen-activated protein kinase kinase kinase 2 (MAP3K2, Homo sapiens, UniProt Q9Y2U5): remaining binding read 100%.
It gave 97% for remaining binding (Calcium/calmodulin-dependent protein kinase type II subunit beta (CAMK2B, Homo sapiens, UniProt Q13554)).
It gave 100% for remaining binding (Epidermal growth factor receptor (EGFR, Homo sapiens, UniProt P00533, L861Q)).
It gave 100% for remaining binding (Serine/threonine-protein kinase ULK3 (ULK3, Homo sapiens, UniProt Q6PHR2)).
It gave 100% for remaining binding (Protein-tyrosine kinase 6 (PTK6, Homo sapiens, UniProt Q13882)).
The remaining binding was 93% (Epidermal growth factor receptor (EGFR, Homo sapiens, UniProt P00533, A750P/del747-749)).
It gave 88% for remaining binding (Discoidin domain-containing receptor 2 (DDR2, Homo sapiens, UniProt Q16832)).
For Receptor-type tyrosine-protein kinase FLT3 (FLT3, Homo sapiens, UniProt P36888, D835V): remaining binding read 95%.
The remaining binding was 82% (Ribosomal protein S6 kinase alpha-6, N-terminal kinase domain (RPS6KA6, Homo sapiens, UniProt Q9UK32)).
The remaining binding was 100% (Non-receptor tyrosine-protein kinase TYK2, JH1 (TYK2, Homo sapiens, UniProt P29597)).
For Ephrin type-A receptor 8 (EPHA8, Homo sapiens, UniProt P29322): remaining binding read 82%.
It gave 100% for remaining binding (Inhibitor of nuclear factor kappa-B kinase subunit alpha (CHUK, Homo sapiens, UniProt O15111)).

Sample 3
Cell line: A-375
Concentration: 100 µM
Time: 18 h
CN[C@@H]1[C@H](O[C@H]2[C@H](O[C@H]3[C@H](O)[C@@H](O)[C@H](NC(=N)N)[C@@H](O)[C@@H]3NC(=N)N)O[C@@H](C)[C@]2(O)CO)O[C@@H](CO)[C@H](O)[C@H]1O has a viability of 92.7%.
For COc1cccc2c1C(=O)c1c(O)c3c(c(O)c1C2=O)C[C@@](O)(C(=O)CO)C[C@@H]3O[C@H]1C[C@H](N)[C@@H](O)[C@H](C)O1, the viability was 76.2%.
The viability of C[C@@H](NCCc1ccc(O)cc1)[C@@H](O)c1ccc(O)cc1 (racemic) is reported as 95.2%.
The viability of COc1cc(NS(C)(=O)=O)ccc1Nc1c2ccccc2nc2ccccc12 is reported as 16.1%.
The viability of CC(=O)Oc1ccc(C(c2ccc(OC(C)=O)cc2)c2ccccn2)cc1 is reported as 7.97%.
For CC(=O)OCC(=O)[C@@]12N=C(C)O[C@@H]1C[C@H]1[C@@H]3CCC4=CC(=O)C=C[C@]4(C)[C@H]3[C@@H](O)C[C@@]12C, the viability was 95.4%.
With Cc1nc2c([nH]1)-c1ccccc1N(C(=O)c1ccc(NC(=O)c3ccccc3-c3ccccc3)cc1)CC2 the viability was 70.3%.
For C[C@H](Cc1cc2c(c(C(N)=O)c1)N(CCCO)CC2)NCCOc1ccccc1OCC(F)(F)F, the viability was 94.4%.
The viability of Cc1cc(-n2c(=O)[nH]c(=O)n(C)c2=O)ccc1Oc1ccc(SC(F)(F)F)cc1 is reported as 25.6%.
CO[C@H]1/C=C/O[C@@]2(C)Oc3c(C)c(O)c4c(O)c(c(/C=N/N5CCN(C6CCCC6)CC5)c(O)c4c3C2=O)NC(=O)/C(C)=C\C=C\[C@H](C)[C@H](O)[C@@H](C)[C@@H](O)[C@@H](C)[C@H](OC(C)=O)[C@@H]1C has a viability of 72%.
The viability of NCCc1ccc(O)c(O)c1 is reported as 123%.
The viability of CCN[C@@H]1C[C@H](N)[C@@H](O[C@H]2OC(CN)=CC[C@H]2N)[C@H](O)[C@H]1O[C@H]1OC[C@](C)(O)[C@H](NC)[C@H]1O is reported as 91.7%.
For COc1c(C)c2c(c(O)c1C/C=C(\C)CCC(=O)OCCN1CCOCC1)C(=O)OC2, the viability was 81.1%.
With NCCNc1ccc(NCCN)c2c1C(=O)c1ccncc1C2=O the viability was 12.2%.
For Cc1cccc(CN2CCN(C(c3ccccc3)c3ccc(Cl)cc3)CC2)c1 (stereo not drawn), the viability was 81.4%.
With O[C@@H](c1cc(C(F)(F)F)nc2c(C(F)(F)F)cccc12)[C@H]1CCCCN1 the viability was 112%.
CN(C)CCc1c[nH]c2ccc(Cn3cncn3)cc12 gave a viability of 103%.

Sample 4
Species: mouse
Sample: microsomes or S9
Concentration: 2 µM
Time: 0.5 h
The remaining compound of Clc1cccc(C(c2ccccc2)N2CCN(c3nn4nnnc4c4ccccc34)CC2)c1 (stereo not drawn) is reported as 84.2%.
The remaining compound of Cc1ccn(CCNc2ncnc3c2CCN(c2cnccn2)CC3)n1 is reported as 0.508%.
CC(C)(C)CCNc1ccc(CNS(C)(=O)=O)cc1 gave a remaining compound of 13.5%.
The remaining compound of CCC1(CC)NC(=O)N(Cc2cc3ccc(C)c(C)c3nc2Cl)C1=O is reported as 0.258%.
With Cc1cccc(NC(=O)NC(C)c2n[nH]c(=O)n2C)n1 (stereo not drawn) the remaining compound was > 100%.
With Cc1cc(F)c(S(N)(=O)=O)c(NCCCOC(C)C)c1 the remaining compound was 0.38%.
Clc1nc(N2CCN(c3ccccn3)CC2)c2nc[nH]c2n1 has a remaining compound of 0.0656%.
Cc1ccc2cc(CNCC3COCCO3)c3nnnn3c2c1 (stereo not drawn) gave a remaining compound of 94.2%.
CC(=O)c1c(NCc2ccc(Cl)cc2)n(C)c2ccccc2c1=O has a remaining compound of 10.7%.
The remaining compound of COc1ccc(-n2ccc3cc(N4CCCCC4)ccc32)cc1Cl is reported as 0.0659%.
The remaining compound of CCCC(=O)OCCNc1cc(SCC(=O)OCC)c2nonc2c1[N+](=O)[O-] is reported as 0.00269%.
The remaining compound of COC(=O)c1cccc(OCCn2c(=O)[nH]c3cc(F)c(F)cc3c2=O)c1 is reported as 1.62%.
For Cc1oc(=O)n(Cc2cc(C(N)=O)oc2C(C)(C)C)c1C, the remaining compound was 76.4%.

Some of these lines once more (sample 3):
The viability of CCN[C@@H]1C[C@H](N)[C@@H](O[C@H]2OC(CN)=CC[C@H]2N)[C@H](O)[C@H]1O[C@H]1OC[C@](C)(O)[C@H](NC)[C@H]1O is reported as 91.7%.
For COc1c(C)c2c(c(O)c1C/C=C(\C)CCC(=O)OCCN1CCOCC1)C(=O)OC2, the viability was 81.1%.
With NCCNc1ccc(NCCN)c2c1C(=O)c1ccncc1C2=O the viability was 12.2%.
For Cc1cccc(CN2CCN(C(c3ccccc3)c3ccc(Cl)cc3)CC2)c1 (stereo not drawn), the viability was 81.4%.
With O[C@@H](c1cc(C(F)(F)F)nc2c(C(F)(F)F)cccc12)[C@H]1CCCCN1 the viability was 112%.
CN(C)CCc1c[nH]c2ccc(Cn3cncn3)cc12 gave a viability of 103%.
